Measurements pooled from the literature.
Every numbered part comes from another study and shows a few of its results, in no order. Several values in a cell are separate wells, animals, samples, runs or records.
Chain of UniProt P29320 (whole entry, looked up): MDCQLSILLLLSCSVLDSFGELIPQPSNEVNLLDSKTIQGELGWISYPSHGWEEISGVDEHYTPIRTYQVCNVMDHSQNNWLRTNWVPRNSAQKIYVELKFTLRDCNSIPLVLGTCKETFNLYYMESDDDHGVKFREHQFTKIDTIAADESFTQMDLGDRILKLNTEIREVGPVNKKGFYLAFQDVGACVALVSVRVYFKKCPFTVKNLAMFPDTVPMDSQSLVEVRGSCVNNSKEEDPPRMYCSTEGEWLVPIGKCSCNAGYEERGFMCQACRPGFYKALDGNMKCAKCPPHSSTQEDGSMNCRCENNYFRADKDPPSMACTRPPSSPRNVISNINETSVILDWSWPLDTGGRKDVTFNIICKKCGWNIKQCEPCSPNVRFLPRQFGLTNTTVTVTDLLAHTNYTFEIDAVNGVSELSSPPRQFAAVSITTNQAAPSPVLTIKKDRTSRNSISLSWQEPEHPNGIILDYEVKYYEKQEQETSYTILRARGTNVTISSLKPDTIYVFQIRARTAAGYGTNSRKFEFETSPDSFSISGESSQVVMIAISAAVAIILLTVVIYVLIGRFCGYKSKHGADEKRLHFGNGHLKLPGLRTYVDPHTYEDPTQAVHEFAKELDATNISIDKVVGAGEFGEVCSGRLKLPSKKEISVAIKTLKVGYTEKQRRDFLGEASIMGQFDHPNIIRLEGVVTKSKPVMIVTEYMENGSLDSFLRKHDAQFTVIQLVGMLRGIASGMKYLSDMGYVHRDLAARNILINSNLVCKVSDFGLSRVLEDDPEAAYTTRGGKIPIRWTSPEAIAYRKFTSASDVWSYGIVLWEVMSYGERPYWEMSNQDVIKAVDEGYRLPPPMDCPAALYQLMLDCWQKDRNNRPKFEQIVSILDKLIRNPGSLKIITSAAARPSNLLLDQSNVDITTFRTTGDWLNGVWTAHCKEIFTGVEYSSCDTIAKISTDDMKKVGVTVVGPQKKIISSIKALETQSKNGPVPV
Chain of UniProt P57059 (whole entry, looked up): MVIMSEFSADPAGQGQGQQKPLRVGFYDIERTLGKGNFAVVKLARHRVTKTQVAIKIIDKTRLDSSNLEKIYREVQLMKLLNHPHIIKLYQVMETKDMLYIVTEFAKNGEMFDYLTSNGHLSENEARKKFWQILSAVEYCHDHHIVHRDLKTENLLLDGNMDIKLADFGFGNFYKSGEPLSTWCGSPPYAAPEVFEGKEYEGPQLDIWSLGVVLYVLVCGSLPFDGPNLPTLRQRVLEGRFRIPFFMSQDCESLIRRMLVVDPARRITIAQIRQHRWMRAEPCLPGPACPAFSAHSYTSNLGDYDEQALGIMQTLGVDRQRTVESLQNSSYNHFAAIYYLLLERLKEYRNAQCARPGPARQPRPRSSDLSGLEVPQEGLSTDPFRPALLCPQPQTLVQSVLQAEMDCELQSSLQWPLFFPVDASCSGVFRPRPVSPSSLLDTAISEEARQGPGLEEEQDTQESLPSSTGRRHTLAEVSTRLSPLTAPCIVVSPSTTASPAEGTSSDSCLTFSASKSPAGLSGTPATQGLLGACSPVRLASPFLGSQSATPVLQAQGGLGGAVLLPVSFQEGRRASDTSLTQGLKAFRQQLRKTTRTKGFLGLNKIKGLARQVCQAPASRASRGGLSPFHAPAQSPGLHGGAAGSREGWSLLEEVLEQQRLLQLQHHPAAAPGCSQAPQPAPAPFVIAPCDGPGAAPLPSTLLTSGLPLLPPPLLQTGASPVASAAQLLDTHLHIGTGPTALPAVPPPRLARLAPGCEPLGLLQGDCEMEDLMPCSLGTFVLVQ
Chain of UniProt O15530 (whole entry, looked up): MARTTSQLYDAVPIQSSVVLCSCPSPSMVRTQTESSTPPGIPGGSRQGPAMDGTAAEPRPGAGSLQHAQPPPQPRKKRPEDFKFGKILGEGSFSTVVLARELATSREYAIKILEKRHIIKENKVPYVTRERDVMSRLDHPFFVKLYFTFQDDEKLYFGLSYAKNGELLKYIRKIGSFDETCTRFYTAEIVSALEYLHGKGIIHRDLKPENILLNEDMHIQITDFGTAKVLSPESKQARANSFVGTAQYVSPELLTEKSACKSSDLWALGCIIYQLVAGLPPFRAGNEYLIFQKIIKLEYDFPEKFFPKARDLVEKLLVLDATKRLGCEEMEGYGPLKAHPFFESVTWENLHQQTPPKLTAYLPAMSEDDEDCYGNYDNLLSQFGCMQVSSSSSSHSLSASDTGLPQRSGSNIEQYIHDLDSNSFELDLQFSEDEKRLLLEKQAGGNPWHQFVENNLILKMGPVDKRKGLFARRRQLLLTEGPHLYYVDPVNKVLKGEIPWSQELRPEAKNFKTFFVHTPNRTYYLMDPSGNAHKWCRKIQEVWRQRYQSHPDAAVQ
Chain of UniProt P11802 (whole entry, looked up): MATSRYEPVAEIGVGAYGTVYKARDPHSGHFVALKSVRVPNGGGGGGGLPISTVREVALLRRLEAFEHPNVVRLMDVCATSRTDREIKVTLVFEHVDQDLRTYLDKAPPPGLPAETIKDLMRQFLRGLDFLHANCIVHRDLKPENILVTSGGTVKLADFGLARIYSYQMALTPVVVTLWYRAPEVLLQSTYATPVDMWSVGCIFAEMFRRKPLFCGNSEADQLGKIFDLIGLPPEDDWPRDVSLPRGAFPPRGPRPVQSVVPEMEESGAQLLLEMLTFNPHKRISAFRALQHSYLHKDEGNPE
Chain of UniProt P43403 (whole entry, looked up): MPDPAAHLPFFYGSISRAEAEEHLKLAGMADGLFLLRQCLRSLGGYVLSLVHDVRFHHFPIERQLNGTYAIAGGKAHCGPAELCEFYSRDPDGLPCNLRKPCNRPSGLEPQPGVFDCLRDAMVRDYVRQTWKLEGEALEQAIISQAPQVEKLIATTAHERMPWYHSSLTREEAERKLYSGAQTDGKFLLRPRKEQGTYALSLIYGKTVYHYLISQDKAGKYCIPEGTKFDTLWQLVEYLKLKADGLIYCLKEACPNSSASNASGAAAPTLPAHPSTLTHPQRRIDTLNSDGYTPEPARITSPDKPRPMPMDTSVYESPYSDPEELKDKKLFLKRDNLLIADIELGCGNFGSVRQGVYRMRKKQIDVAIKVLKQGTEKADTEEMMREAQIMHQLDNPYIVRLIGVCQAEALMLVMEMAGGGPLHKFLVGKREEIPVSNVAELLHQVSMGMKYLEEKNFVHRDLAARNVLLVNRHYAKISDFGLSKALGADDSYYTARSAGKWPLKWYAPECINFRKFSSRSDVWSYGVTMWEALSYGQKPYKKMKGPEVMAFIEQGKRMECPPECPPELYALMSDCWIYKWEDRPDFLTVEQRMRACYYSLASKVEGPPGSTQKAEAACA

Block 1
SMILES: CCN1/C(=C/C=C2\CCCC(/C=C/C3=[N+](CC)c4ccccc4C3(C)C)=C2NCCCCCCCCN2CCC(Nc3nc4ccccc4n3Cc3ccc(F)cc3)CC2)C(C)(C)c2ccccc21
Cell line: U-87 MG
Concentration: concentration not given
Reference: DMSO
It gave 1.09 for “log2 fold change” (measured: TFPI2 mRNA).
The “log2 fold change” was -1.83 (measured: GNG2 mRNA).
The “log2 fold change” was 1.89 (measured: TBX3 mRNA).
It gave -1.44 for “log2 fold change” (measured: TGFBR2 mRNA).
For measured: COMMD4 mRNA: “log2 fold change” read -0.84.
measured: SLFN12 mRNA — “log2 fold change”: -1.72.
It gave 2.6 for “log2 fold change” (measured: DUSP5 mRNA).
The “log2 fold change” was -1.35 (measured: CALHM5 mRNA).
It gave -2.55 for “log2 fold change” (measured: SAPCD2 mRNA).
The “log2 fold change” was -1.08 (measured: HOXB4 mRNA).
For measured: AFF4 mRNA: “log2 fold change” read 0.815.

Block 2
Compound: C[C@@H]1CN(c2ccc(-c3cc(C(=O)NCCOCCOCCOCCOCCOCCOCCNC(=O)/C=C/c4[nH]cc(C(=O)N[C@@H](CC(N)=O)c5ccc(F)c(Cl)c5)c4-c4ccc(Cl)cc4F)ccc3F)cc2NC(=O)c2ccc(F)cc2C(F)(F)F)C[C@H](C)N1C
Read-out: thermal unfolding
Method: differential scanning fluorimetry
Concentration: 5.5 µM
Direction: higher = more unfolded
DCAF1: DDB1- and CUL4-associated factor 1 (DCAF1, Homo sapiens, UniProt Q9Y4B6)
Chain of UniProt Q9Y4B6 (whole entry, looked up): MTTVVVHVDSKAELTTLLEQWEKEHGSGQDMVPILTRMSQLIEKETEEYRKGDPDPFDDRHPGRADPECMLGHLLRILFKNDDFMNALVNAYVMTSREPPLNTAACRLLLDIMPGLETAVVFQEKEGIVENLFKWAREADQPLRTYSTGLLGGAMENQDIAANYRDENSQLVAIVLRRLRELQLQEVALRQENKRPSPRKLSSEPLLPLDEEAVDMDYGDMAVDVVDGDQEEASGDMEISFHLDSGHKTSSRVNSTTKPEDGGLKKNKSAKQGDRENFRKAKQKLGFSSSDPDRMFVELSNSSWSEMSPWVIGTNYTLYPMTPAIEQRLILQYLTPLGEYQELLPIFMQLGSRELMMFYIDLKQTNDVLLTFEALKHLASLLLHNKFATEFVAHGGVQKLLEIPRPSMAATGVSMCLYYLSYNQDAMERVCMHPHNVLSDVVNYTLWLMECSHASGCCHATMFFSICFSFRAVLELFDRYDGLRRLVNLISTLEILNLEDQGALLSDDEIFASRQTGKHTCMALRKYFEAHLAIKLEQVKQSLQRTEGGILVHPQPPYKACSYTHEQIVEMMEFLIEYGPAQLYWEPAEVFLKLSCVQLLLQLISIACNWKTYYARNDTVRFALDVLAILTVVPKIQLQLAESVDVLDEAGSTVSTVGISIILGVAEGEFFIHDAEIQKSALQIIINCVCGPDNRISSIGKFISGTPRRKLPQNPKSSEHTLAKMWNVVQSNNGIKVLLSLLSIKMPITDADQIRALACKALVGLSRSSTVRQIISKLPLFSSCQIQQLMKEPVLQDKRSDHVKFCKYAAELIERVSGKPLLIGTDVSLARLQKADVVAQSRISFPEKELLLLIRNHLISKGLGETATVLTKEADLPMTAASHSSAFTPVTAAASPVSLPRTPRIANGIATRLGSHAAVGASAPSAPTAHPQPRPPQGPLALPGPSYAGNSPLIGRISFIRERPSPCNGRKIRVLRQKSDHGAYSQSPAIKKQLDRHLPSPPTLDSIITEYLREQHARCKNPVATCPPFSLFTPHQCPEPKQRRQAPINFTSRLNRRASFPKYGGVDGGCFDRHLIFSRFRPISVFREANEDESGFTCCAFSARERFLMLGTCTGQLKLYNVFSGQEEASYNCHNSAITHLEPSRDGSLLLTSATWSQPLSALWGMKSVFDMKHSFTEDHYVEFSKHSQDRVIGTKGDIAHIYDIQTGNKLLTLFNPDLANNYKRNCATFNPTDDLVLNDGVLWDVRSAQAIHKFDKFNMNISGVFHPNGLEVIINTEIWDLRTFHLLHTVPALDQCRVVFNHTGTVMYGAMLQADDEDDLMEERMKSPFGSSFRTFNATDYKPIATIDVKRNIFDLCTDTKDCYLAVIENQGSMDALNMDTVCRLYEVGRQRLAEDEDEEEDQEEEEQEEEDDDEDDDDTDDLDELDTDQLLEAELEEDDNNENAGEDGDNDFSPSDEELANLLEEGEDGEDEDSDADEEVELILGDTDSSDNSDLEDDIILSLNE
WDR5: WD repeat-containing protein 5 (WDR5, Homo sapiens, UniProt P61964)
DCAF1; 72.21 °C — “SYPRO Orange fluorescence”: 46200 a.u.
The “SYPRO Orange fluorescence” was 65500 a.u. (WDR5; 80.61 °C).
It gave 16700 a.u. for “SYPRO Orange fluorescence” (WDR5; 51 °C).
For WDR5; 41.2 °C: “SYPRO Orange fluorescence” read 14300 a.u.
It gave 21200 a.u. for “SYPRO Orange fluorescence” (WDR5; 67.81 °C).
For DCAF1; 26.6 °C: “SYPRO Orange fluorescence” read 7460 a.u.
The “SYPRO Orange fluorescence” was 41400 a.u. (DCAF1; 77.81 °C).

Block 3
SMILES: CNc1ncc2cc(-c3cc(OC)cc(OC)c3Cl)c(=O)n(CCc3ccc(NC(=O)C(C#N)=CC(C)(C)N4CCOCC4)cc3)c2n1
Read-out: kinase activity
The inhibition was -1% (Ephrin type-A receptor 3 (EPHA3, Homo sapiens, UniProt P29320); 0.1 µM).
For Casein kinase II subunit alpha (CSNK2A1, Homo sapiens, UniProt P68400); 0.1 µM: inhibition read 10%.
Cyclin-dependent kinase 4, with cyclin D (CDK4, Homo sapiens, UniProt P11802); 0.1 µM — inhibition: -3%.
It gave -1% for inhibition (Tyrosine-protein kinase Srms (SRMS, Homo sapiens, UniProt Q9H3Y6); 1 µM).
For MAP kinase-activated protein kinase 2 (MAPKAPK2, Homo sapiens, UniProt P49137); 0.1 µM: inhibition read 4%.
Ephrin type-A receptor 8 (EPHA8, Homo sapiens, UniProt P29322); 0.1 µM — inhibition: 5%.
Inhibitor of nuclear factor kappa-B kinase subunit beta (IKBKB, Homo sapiens, UniProt O14920); 1 µM — inhibition: -1%.
It gave 0% for inhibition (Tyrosine-protein kinase receptor UFO (AXL, Homo sapiens, UniProt P30530); 0.1 µM).
It gave 4% for inhibition (Tyrosine-protein kinase Yes (YES1, Homo sapiens, UniProt P07947); 0.1 µM).
The inhibition was -2% (Serine/threonine-protein kinase SIK1 (SIK1, Homo sapiens, UniProt P57059); 0.1 µM).
The inhibition was 1% (Aurora kinase B (AURKB, Homo sapiens, UniProt Q96GD4); 1 µM).
For Tyrosine-protein kinase ZAP-70 (ZAP70, Homo sapiens, UniProt P43403); 0.1 µM: inhibition read -4%.
It gave 2% for inhibition (3-phosphoinositide-dependent protein kinase 1 (PDPK1, Homo sapiens, UniProt O15530); 1 µM).
For Serine/threonine-protein kinase PAK 5 (PAK5, Homo sapiens, UniProt Q9P286); 0.1 µM: inhibition read -3%.

Block 4
SMILES: Cc1ccc(O)c(C)c1-c1cnc2[nH]c(-c3cnc(N)nc3)cc2c1C#N
Target: Membrane-associated tyrosine- and threonine-specific cdc2-inhibitory kinase (PKMYT1, Homo sapiens, UniProt Q99640)
Read-out: target engagement
Method: NanoBRET
Target sequence (Q99640 1-499): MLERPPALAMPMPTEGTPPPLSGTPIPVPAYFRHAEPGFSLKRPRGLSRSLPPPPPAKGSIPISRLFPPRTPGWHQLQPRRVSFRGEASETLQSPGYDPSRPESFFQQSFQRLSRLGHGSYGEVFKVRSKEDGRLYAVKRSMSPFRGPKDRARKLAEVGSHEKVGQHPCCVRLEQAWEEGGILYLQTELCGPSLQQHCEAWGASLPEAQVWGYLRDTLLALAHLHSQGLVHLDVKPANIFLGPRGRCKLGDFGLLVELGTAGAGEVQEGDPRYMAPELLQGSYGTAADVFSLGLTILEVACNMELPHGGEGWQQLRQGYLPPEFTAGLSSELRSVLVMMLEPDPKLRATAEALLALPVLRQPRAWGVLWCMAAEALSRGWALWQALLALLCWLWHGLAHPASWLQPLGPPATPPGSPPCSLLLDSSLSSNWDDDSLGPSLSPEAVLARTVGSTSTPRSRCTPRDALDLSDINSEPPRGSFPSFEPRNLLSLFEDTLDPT
For 12.35 nM: NanoBRET signal read 18 mBU and 19.1 mBU.
333.33 nM — NanoBRET signal: 17.6 mBU and 17.8 mBU.
The NanoBRET signal was 18.9 mBU and 20.4 mBU (37.04 nM).
0.15 nM — NanoBRET signal: 29.2 mBU and 27.2 mBU.
It gave 29.7 mBU and 26.7 mBU for NanoBRET signal (0.46 nM).
For 111.11 nM: NanoBRET signal read 17.9 mBU and 16.8 mBU.
4.12 nM — NanoBRET signal: 21.5 mBU and 21.7 mBU.
It gave 29.3 mBU and 29.1 mBU for NanoBRET signal (0.05 nM).

Some of these lines once more (block 4):
It gave 29.7 mBU and 26.7 mBU for NanoBRET signal (0.46 nM).
0.15 nM — NanoBRET signal: 29.2 mBU and 27.2 mBU.
The NanoBRET signal was 18.9 mBU and 20.4 mBU (37.04 nM).
It gave 29.3 mBU and 29.1 mBU for NanoBRET signal (0.05 nM).
4.12 nM — NanoBRET signal: 21.5 mBU and 21.7 mBU.
For 111.11 nM: NanoBRET signal read 17.9 mBU and 16.8 mBU.
